Published values from different studies.
A part holds a random share of what one study measured.

Study 1
Target: Replicase polyprotein 1ab, nsp13 helicase (rep, Severe acute respiratory syndrome coronavirus 2, UniProt P0DTD1)
Effect on: helicase activity
Mode: inhibitor
Technique: high-content helicase
Organism: SARS-CoV-2
Tested at: 20 µM
Measurement: inhibition
Oc1c(I)cc(I)c(O)c1I: 101%
O=C(/C=C/c1ccc2ccccc2n1)c1ccncc1: 100%
O=[N+]([O-])C=Cc1ccc2c(c1)OCO2: 85.7%
O=S(=O)(O)c1ccc(-c2c3nc(c(-c4ccc(S(=O)(=O)O)cc4)c4ccc([nH]4)c(-c4ccc(S(=O)(=O)O)cc4)c4nc(c(-c5ccc(S(=O)(=O)O)cc5)c5ccc2[nH]5)C=C4)C=C3)cc1: 88%
O=C(O)c1ccc(SSc2ccc(C(=O)O)cn2)nc1: 103%
CCN(CC)C(=S)S: 87.1%
O=C1C(c2ccccn2)=[N+]([O-])c2ccccc21: 100%
CCC(C)SSc1ncc[nH]1 (centres unmarked): 101%
OC[C@H]1O[C@H]([S-])[C@H](O)[C@@H](O)[C@@H]1O.[Au+]: 101%

Study 2
Target: TAR DNA-binding protein 43, full length, His tag (TARDBP, Homo sapiens, UniProt Q13148, residues 1-414)
Technique: RNA Bind-n-Seq
Form: RNA
Sample: in vitro
Tested at: 20 nM
Notes: 6-mer, flanks averaged, single round
With: 150 mM KCl
Baseline: input library
Reading: higher = stronger binding
Measurement: 6-mer enrichment (R)
GAGGAU: 1.45
UUUCCC: 0.617
UUUGCA: 0.675
GUUGGC: 1.21
UGACCA: 0.672
GCGUGG: 3.54
UGAUAG: 0.866
GGCAGU: 1.6

Study 3
Target: Replicase polyprotein 1ab, main protease (rep, Severe acute respiratory syndrome coronavirus 2, UniProt P0DTD1)
Effect on: enzyme activity
Mode: inhibitor
Tested at: 20 µM
Notes: hit confirmation
Measurement: inhibition
COc1cc(C(=S)N2CCOCC2)ccc1O: 99.4%
CN1CCN(C2=C(Cl)C(=O)N(c3ccc(Cl)c(Cl)c3)C2=O)CC1: 110%
CC(=O)N=c1sc(S(N)(=O)=O)nn1C: 12.3%

Study 4
Cell line: HEK-293T
Effect on: pseudovirus infection
Technique: FDA-approved drug library screen
Organism: VSV pseudotyped with SARS-CoV-2 spike
Tested at: 10 µM
Time: 16 h
Baseline: vehicle-treated
Measurement: GFP-positive cells
O=C1CC2(CCCC2)CC(=O)N1CCCCN1CCN(c2ncccn2)CC1: 90.2%
CC1Cc2ccccc2N1NC(=O)c1ccc(Cl)c(S(N)(=O)=O)c1 (centres unmarked): 82%
Nc1ccncc1: 98.8%

A few entries again (study 3):
COc1cc(C(=S)N2CCOCC2)ccc1O: 99.4%
CN1CCN(C2=C(Cl)C(=O)N(c3ccc(Cl)c(Cl)c3)C2=O)CC1: 110%
